{"data": "Measured values gathered from unrelated publications", "note": "Numbered parts are unrelated; each lists some results of a single study."}
{"data": "Sample 1", "target": "Interferon regulatory factor 7, full length, phosphomimetic (IRF7, Homo sapiens, UniProt Q92985, residues 1-503, S101K/S471D/S472D/S475D/S476D/S477D/S483D/S484D/S487D)", "technique": "protein-binding microarray", "molecule type": "double-stranded DNA, one strand shown", "sample": "in vitro", "concentration": "250 nM", "setting": "60-bp whole probe", "added": "salmon DNA 0.4 mg/ml", "baseline": "random background probes", "direction": "higher = stronger binding", "all sequences stand within": "GCCTAGCAC … GTCTTGATTCGCTTGACGCTGCTG", "sequence of UniProt Q92985 (whole entry, unmodified, looked up)": "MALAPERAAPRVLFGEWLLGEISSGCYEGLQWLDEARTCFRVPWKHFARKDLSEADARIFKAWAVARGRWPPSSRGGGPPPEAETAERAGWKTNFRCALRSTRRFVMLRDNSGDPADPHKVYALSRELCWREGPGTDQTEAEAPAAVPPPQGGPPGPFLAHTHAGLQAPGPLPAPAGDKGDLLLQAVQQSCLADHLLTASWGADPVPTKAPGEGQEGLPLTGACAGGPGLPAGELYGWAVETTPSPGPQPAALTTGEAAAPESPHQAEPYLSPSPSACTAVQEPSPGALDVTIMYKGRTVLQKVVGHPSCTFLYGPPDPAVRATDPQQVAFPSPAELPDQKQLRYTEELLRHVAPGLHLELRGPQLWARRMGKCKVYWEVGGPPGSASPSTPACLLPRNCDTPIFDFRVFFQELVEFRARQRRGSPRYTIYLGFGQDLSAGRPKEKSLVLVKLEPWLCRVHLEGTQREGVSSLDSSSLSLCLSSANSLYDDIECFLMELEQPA"}
{"Strand": "AGGGAGGTCTCTCCCGACCTGTGCTAG", "log fluorescence [z-score]": -0.867}
{"Strand": "TCACTTTTCACTTTACAACTGTGCTAG", "log fluorescence [z-score]": 2.79}
{"Strand": "TCATTGTTGTTTTTTGGACTGTGCTAG", "log fluorescence [z-score]": 0.877}
{"Strand": "TTAGATATCGGTTTCGATTAGTGCTAG", "log fluorescence [z-score]": 9.4}
{"Strand": "TTCGGACTGGACTATCGGTTAGTGCTA", "log fluorescence [z-score]": -0.512}
{"Strand": "GAGCTCCTCCTTCTCTAACCGTGCTAG", "log fluorescence [z-score]": -0.113}
{"Strand": "ACTAGTTTCCATTTTCAGAAGTGCTAG", "log fluorescence [z-score]": 9.82}
{"Strand": "TTAGATATCAGTATCGTTTAGTGCTAG", "log fluorescence [z-score]": 0.966}
{"Strand": "GACGGTATCCTACTCCTGACGTGCTAG", "log fluorescence [z-score]": -0.0855}
{"Strand": "TCAACTTTGACTTAAGAACTGTGCTAG", "log fluorescence [z-score]": 0.337}
{"Strand": "TTAGGTATCGGGAATCGGTTAGTGCTA", "log fluorescence [z-score]": 0.42}
{"Strand": "GACGGTTCCCTTTTCCTTACGTGCTAG", "log fluorescence [z-score]": 2.98}
{"Strand": "TTAGATTTCAGTATCGGTTAGTGCTAG", "log fluorescence [z-score]": 1.28}
{"Strand": "TTAGAACTGAGGCTCGATTAGTGCTAG", "log fluorescence [z-score]": 0.431}
{"Strand": "TTAGGACTGGGGTATCGGTAAGTGCTA", "log fluorescence [z-score]": -0.555}
{"data": "Sample 2", "Molecule": "LQVDDDSGDPLNLVKA", "technique": "competitive growth deep sequencing", "molecule type": "peptide", "setting": "peptide tiling library", "direction": "direction not given"}
{"tested on": "Saccharomyces cerevisiae", "effect on": "yeast growth", "strain": "unfused Cln2", "enrichment score": 0.0471}
{"tested on": "human cyclin A2-Cln2 fusion", "effect on": "yeast growth", "organism": "Saccharomyces cerevisiae", "enrichment score": 0.597}
{"tested on": "Saccharomyces cerevisiae", "effect on": "mating arrest growth", "strain": "no Cln2 overexpression", "enrichment score": -0.109}
{"data": "Sample 3", "target": "Sal-like protein 4, full length isoform B (SALL4, Homo sapiens, UniProt Q9UJQ4-2, residues 1-616)", "technique": "universal PBM", "molecule type": "double-stranded DNA, one strand shown", "sample": "in vitro", "concentration": "not given", "setting": "8-mer, flanks averaged, mean of replicates", "direction": "higher = stronger binding", "Construct (chain)": "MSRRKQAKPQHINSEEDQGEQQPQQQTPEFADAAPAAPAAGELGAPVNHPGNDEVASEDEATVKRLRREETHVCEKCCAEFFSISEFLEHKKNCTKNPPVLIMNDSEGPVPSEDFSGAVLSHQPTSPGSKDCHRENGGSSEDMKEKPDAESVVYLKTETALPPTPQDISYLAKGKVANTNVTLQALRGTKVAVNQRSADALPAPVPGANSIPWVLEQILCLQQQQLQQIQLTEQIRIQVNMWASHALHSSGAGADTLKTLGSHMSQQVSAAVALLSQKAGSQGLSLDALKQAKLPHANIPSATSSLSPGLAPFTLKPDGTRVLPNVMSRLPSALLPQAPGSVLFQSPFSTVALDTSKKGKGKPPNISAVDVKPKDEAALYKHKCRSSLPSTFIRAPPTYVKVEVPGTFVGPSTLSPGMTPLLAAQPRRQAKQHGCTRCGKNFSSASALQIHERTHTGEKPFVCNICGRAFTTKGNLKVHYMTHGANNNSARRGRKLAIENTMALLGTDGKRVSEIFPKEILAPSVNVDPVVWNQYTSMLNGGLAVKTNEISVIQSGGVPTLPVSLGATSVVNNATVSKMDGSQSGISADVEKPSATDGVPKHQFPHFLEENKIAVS"}
{"Strand": "TCCACTCA", "E-score": -0.0617}
{"Strand": "ACTCACAG", "E-score": 0.00829}
{"Strand": "ACAACATG", "E-score": 0.0767}
{"Strand": "ACTGCATA", "E-score": 0.181}
{"Strand": "ACGTTTAG", "E-score": 0.0815}
{"Strand": "AATTTTTA", "E-score": 0.417}
{"Strand": "CCTCGCCG", "E-score": -0.385}
{"Strand": "TAGACTGA", "E-score": 0.0685}
{"Strand": "GCACATCA", "E-score": -0.00047}
{"Strand": "AGTACAAA", "E-score": 0.185}
{"Strand": "GACTAGTA", "E-score": 0.154}
{"Strand": "GGTTTTAA", "E-score": 0.1}
{"Strand": "ACTATGAG", "E-score": 0.0871}
{"Strand": "GAGGCCGC", "E-score": -0.342}
{"Strand": "AGATGGAA", "E-score": 0.0608}
{"data": "Sample 4", "target": "Histone acetyltransferase KAT6A, winged helix 1, GST fusion (KAT6A, Homo sapiens, UniProt Q92794, residues 1-85)", "technique": "protein binding microarray", "molecule type": "double-stranded DNA, one strand shown", "sample": "in vitro", "concentration": "not given", "setting": "8-mer, flanks averaged, mean of 2 arrays, mostly near background", "baseline": "not given", "direction": "higher = stronger binding", "Construct (chain)": "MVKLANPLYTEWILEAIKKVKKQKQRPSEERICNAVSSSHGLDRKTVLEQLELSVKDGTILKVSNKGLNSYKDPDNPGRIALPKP"}
{"Strand": "AATTCCGA", "E-score": -0.0812}
{"Strand": "ATCACGCA", "E-score": 0.0669}
{"Strand": "GGAGGCCA", "E-score": -0.143}
{"Strand": "CCATAATC", "E-score": -0.0965}
{"Strand": "ATTAAGTA", "E-score": -0.0804}
{"Strand": "AGACGTTC", "E-score": -0.0836}
{"Strand": "ATGCTAAA", "E-score": -0.185}
{"Strand": "CCGAAACG", "E-score": 0.0225}
{"Strand": "TATGGCGA", "E-score": 0.0138}
{"Strand": "GGCAATAA", "E-score": -0.085}
{"Strand": "ATTCGAAA", "E-score": -0.206}
{"Strand": "CTACATCA", "E-score": -0.0726}
{"Strand": "AGCTTCCA", "E-score": -0.223}
{"Strand": "CCCAAAAC", "E-score": -0.264}
{"Strand": "ACACACCG", "E-score": 0.171}
{"Strand": "GGTTGCAA", "E-score": -0.155}
{"Strand": "ACCAACCG", "E-score": 0.0971}
{"Strand": "AAGTGATC", "E-score": -0.146}
{"Strand": "CCCCACGA", "E-score": -0.204}
{"Strand": "CAAAATCA", "E-score": -0.227}
{"Strand": "ACGTCCTA", "E-score": -0.107}
{"data": "Other studies, line by line"}
{"Molecule": "PhoQ, residues 284 288 289 292 302 303 ASTSDA", "target": "PhoP, residues 12 14 15 18 19 NHTVL (Escherichia coli, UniProt P23836)", "assay": "Sort-seq, item: YFP reporter", "system": "E. coli", "conditions": "PhoQ-PhoP variant library, added: 10 µM Mg2+", "how to read": "baseline: high Mg2+ state, higher = stronger signaling", "measurement": "fold induction", "result": 3.93}
{"note": "Repeated from above (sample 4):"}
{"Strand": "ACCAACCG", "E-score": 0.0971}
{"Strand": "AAGTGATC", "E-score": -0.146}
{"Strand": "CCCCACGA", "E-score": -0.204}
{"Strand": "CAAAATCA", "E-score": -0.227}
{"Strand": "ACGTCCTA", "E-score": -0.107}
